Assay results from different studies.
Compare with care: the assays were run in different laboratories. ± gives the spread as reported.

SMILES | cell line | test | system | conditions | scale | quantity | result
[Ga+3].[O-]c1ccc(Br)c2cccnc12.[O-]c1ccc(Br)c2cccnc12.[O-]c1ccc(Br)c2cccnc12 | HCC1806 | cell growth or viability, SRB | – | 10 µM, 48 h | – | inhibition | 91.4%
CC(C)C[C@H](NC(=O)[C@H](CO)NC(=O)[C@H](Cc1c[nH]c2ccccc12)NC(=O)[C@H](Cc1ccccc1)NC(=O)[C@H](Cc1ccccc1)NC(=O)[C@H](CCC(N)=O)NC(=O)[C@@H]1CCCN1C(=O)[C@H](CCCNC(=N)N)NC(=O)[C@H](CCCNC(=N)N)NC(=O)[C@H](CCCNC(=N)N)NC(=O)[C@H](CCC(N)=O)NC(=O)[C@H](CCCNC(=N)N)NC(=O)[C@H](CCCNC(=N)N)NC(=O)[C@H](CCCCN)NC(=O)[C@H](CCCCN)NC(=O)[C@H](CCCNC(=N)N)NC(=O)CNC(=O)[C@@H](N)Cc1ccc(O)cc1)C(=O)N[C@@H](CS)C(=O)N[C@H](C(=O)N[C@@H](C)C(=O)O)[C@@H](C)O | Jurkat | PI staining flow cytometry | – | 15 µM, 18 h, 0.5% FBS | – | cell death | 70.5%
CC(C)CC(O)(CC(C)C)c1cn(C(=O)N2CCCC2)nn1 | mouse T-cells | N-terminal labeled proteins, N-terminal enrichment proteomics, refers to: NIBAN | – | 1 nM, 6 h | baseline: DMSO | SILAC ratio | 4.22 ± 0.28
F[P-](F)(F)(F)(F)F.F[P-](F)(F)(F)(F)F.[Ru+2].c1ccc(-c2ccccn2)nc1.c1ccc(-c2ccccn2)nc1.c1csc(-c2cc3cccnc3c3ncccc23)c1 | SK-MEL-28 | cell viability | – | red light 625 nm | baseline: dark EC50 over light EC50 | phototherapeutic index | 1
Cc1cc(C)c(N2CCN(c3c(C)cc(C)cc3C)C2=[Se])c(C)c1.[Cl][Ag] | A-431 | cell growth or viability, MTT | – | 72 h | – | IC50 | 0.5 µM
COC(=O)C1=CO[C@@H](OC(C)=O)[C@@H]2C(Cn3cc(CCO[Si](C)(C)C(C)(C)C)nn3)=CC[C@H]12 | SK-N-SH | neuroprotection, MTT | – | 0.075 µM, 24 h, with: 250 µM H2O2 | – | viability | 74.2 ± 0.4%
CC/C=C\C/C=C\C/C=C\C/C=C\C/C=C\C/C=C\CCC(=O)Nc1ccn(C2OC(CO)C(O)C2(F)F)c(=O)n1 (centres unmarked) | 786-0 | NCI-60 screen | – | – | – | CC50 | > 100 µM
CC[C@H](C)[C@@H]([C@@H](CC(=O)N1CCC[C@H]1[C@H](OC)[C@@H](C)C(=O)NC(Cc1ccccc1)C(C)OC)OC)N(C)C(=O)[C@@H](NC(=O)[C@H]([C@@H](C)CC)N(C)C)C(C)C (some centres unmarked) | MDA-MB-231 cells | cytotoxicity | – | – | baseline: MMAF EC50 over compound EC50 | potency fold over MMAF | ~170 fold
c1ccc2c(Nc3c4c(nc5ccccc35)CCCC4)cccc2c1 | SH-SY5Y | MTT | – | 50 µM, 1 h pretreatment, 10% FBS, with: H2O2 | – | viability | 37.3 ± 4.23%
C1=CCCC=CCC1.C1=CCCC=CCC1.O=C(N=P12CN3CN(CN(C3)C1)C2)c1cccc[c]1[Pt+].O=C(N=P12CN3CN(CN(C3)C1)C2)c1cccc[c]1[Pt+].[Cl][Hg-]([Cl])[Cl].[Cl][Hg-]([Cl])[Cl].[Cl][Hg][Cl].[Cl][Hg][Cl] | Jurkat | annexin V flow cytometry | – | 10 µM, 24 h, with: z-VAD-fmk 50 µM | baseline: total cells | cell death | 25%
CC(C)C[C@@H]1NC(=O)[C@H](CCCNC(=N)N)NC(=O)[C@H](CCCCN)NC(=O)[C@H](CC(=O)O)NC(=O)[C@H](CCCCN)NC(=O)[C@@H](CO)NC1=O | Panc1_A8 | – | – | 1 µM, 24 h | baseline: vehicle | MMP-2 activity | decreased
Cc1cc(N)c2ccccc2[n+]1CCCCCCCCCCCCCC[n+]1c(C)cc(N)c2ccccc21 | neuroblastoma tumour-initiating cells | sphere formation | – | – | baseline: SMS-KCNR over tumour-initiating cells | EC50 ratio | 2.4 fold
COC(=O)C1=CO[C@@H](OC(C)=O)[C@@H]2C(Cn3cc(C4(O)CCCC4)nn3)=CC[C@H]12 | SK-N-SH | neuroprotection, MTT | – | 0.075 µM, 24 h, with: 250 µM H2O2 | – | viability | 52.3 ± 0.8%
O=C(c1ccc2ccccc2c1)c1cn(-c2ccccc2)nc1C1=Nn2c(Cc3nnc4n3N=C(c3nn(-c5ccccc5)cc3C(=O)c3ccc5ccccc5c3)CS4)nnc2SC1 | MCF7 cells | annexin V/PI flow cytometry | – | IC50, 48 h | – | necrotic cells | 7.35%
COC1CC(OC2CCC3(C)C(CCC45OC46CCC(C(C)=O)C6(C)C(OC(C)=O)C(OC(=O)c4ccccc4)C35)C2)OC(C)C1OC1OC(C)C(OC2OC(CO)C(O)C(O)C2O)C(OC)C1O (centres unmarked) | MDA435/LCC6-MDR1 | cell growth, MDR reversal, SRB | – | 10 µM, with: doxorubicin | baseline: doxorubicin alone over combination | fold reversal of IC50 | 1
C=CCCCCCCCCCOCc1cn(CC2=CC[C@@H]3C(C(=O)OC)=CO[C@@H](OC(C)=O)[C@H]23)nn1 | SK-N-SH | neuroprotection, MTT | – | 0.3 µM, 24 h, with: 250 µM H2O2 | – | viability | 69.2 ± 0.4%
CSCC[C@H](NC(=O)[C@H](CC(C)C)NC(=O)[C@H](Cc1c[nH]cn1)NC(=O)CNC(=O)[C@@H](NC(=O)[C@H](C)NC(=O)[C@H](Cc1c[nH]c2ccccc12)NC(=O)[C@H](CCC(N)=O)NC(=O)CCCCCNC(=O)CCN(CCNC(=O)c1ccc(F)cc1)CCC(=O)NCCCC[C@@H]1NC(=O)[C@@H](Cc2ccc(O)cc2)NC(=O)[C@H](CC(=O)O)NC(=O)CNC(=O)[C@H](CCCNC(=N)N)NC1=O)C(C)C)C(N)=O [fluorine-18 labelled] | PC-3 | refers to: radioactivity | serum-free medium | 2 h | – | efflux | ~50%
Cc1ccnc(Nc2c3c(nc4cc(C)ccc24)CCCC3)c1 | SH-SY5Y | MTT | – | 50 µM, 1 h pretreatment, 10% FBS, with: H2O2 | – | viability | 38.5 ± 1.87%
COC(=O)C1=CO[C@@H](OC(C)=O)[C@@H]2C(Cn3cc(C4(O)CCCCC4)nn3)=CC[C@H]12 | SK-N-SH | neuroprotection, MTT | – | 0.075 µM, 24 h, with: 250 µM H2O2 | – | viability | 75.1 ± 0.9%
O=C(C[P+]([Au-][Cl])(c1ccccc1)c1ccccc1)[O][Ti+2][O]C(=O)C[P+]([Au-][Cl])(c1ccccc1)c1ccccc1.c1cc[cH-]c1.c1cc[cH-]c1 | CAKI-1 cells | ELISA | – | 10 µM, 6 h | – | IL-6 secretion | decreased
CC(C)C[C@@H](NC(=O)CCNc1ccc([N+](=O)[O-])c2nonc12)C(=O)N[C@H](CC(C)C)C(=O)N[C@H](CC(C)C)C(=O)N[C@H](CC(C)C)C(=O)N[C@H](Cc1ccc(OP(=O)(O)O)cc1)C(=O)O | A2780cis | MTT | – | 200 µM, 24 h | – | viability | > 60%
COC(=O)C1=CO[C@@H](O)[C@@H]2C(Cn3cc(C(O)(c4ccccc4)c4ccccc4)nn3)=CC[C@H]12 | SK-N-SH | neuroprotection, MTT | – | 0.6 µM, 24 h, with: 250 µM H2O2 | – | viability | 69.2 ± 1.7%
COc1ccccc1/C=C/[N+](=O)[O-] | THP-2 | cell viability | – | 72 h, FBS 1% | – | CC50 | 1.23 ± 0.14 µM
COC(=O)C1=CO[C@@H](OC(C)=O)[C@@H]2C(Cn3cc(CON4C(=O)c5ccccc5C4=O)nn3)=CC[C@H]12 | SK-N-SH | neuroprotection, MTT | – | 0.6 µM, 24 h, with: 250 µM H2O2 | – | viability | 60.1 ± 0.1%
CCOP(=O)(OCC)OCCCCOC(=O)CC1=C(C)C(=Cc2ccc([S+](C)[O-])cc2)c2ccc(F)cc21 (centres unmarked) | A549 ρ0 (mitochondria-less) | trypan blue exclusion | – | 24 h | baseline: parental A549 cells | IC50 increase | 2 fold
COC(=O)C1=CO[C@@H](OC(C)=O)[C@@H]2C(Cn3cc(CCO)nn3)=CC[C@H]12 | SK-N-SH | neuroprotection, MTT | – | 0.075 µM, 24 h, with: 250 µM H2O2 | – | viability | 83.5 ± 2.5%
CCCCCCCCCCCCCCCC[P+](c1ccccc1)(c1ccccc1)c1ccccc1 | SK-OV-3 | cell growth or viability, MTT | – | 72 h | – | GI50 | 13.8 µM
COC(=O)C1=CO[C@@H](OC(C)=O)[C@@H]2C(Cn3cc(-c4ccc(OC)cc4)nn3)=CC[C@H]12 | SK-N-SH | neuroprotection, MTT | – | 0.3 µM, 24 h, with: 250 µM H2O2 | – | viability | 60.1 ± 1%
O=C(O)CCC(NP(=O)(O)OCCC[C@@H](NC(=O)CCC(NC(=O)CCCCCNC(=O)CCCCCNC(=O)c1ccc([18F])cc1)C(=O)O)C(=O)O)C(=O)O (some centres unmarked) | CWR22Rv1 | – | – | 2 h | – | cell uptake | 4.23 ± 0.64%

Some of these lines once more:
SMILES | cell line | test | system | conditions | scale | quantity | result
COC(=O)C1=CO[C@@H](OC(C)=O)[C@@H]2C(Cn3cc(CON4C(=O)c5ccccc5C4=O)nn3)=CC[C@H]12 | SK-N-SH | neuroprotection, MTT | – | 0.6 µM, 24 h, with: 250 µM H2O2 | – | viability | 60.1 ± 0.1%
CCOP(=O)(OCC)OCCCCOC(=O)CC1=C(C)C(=Cc2ccc([S+](C)[O-])cc2)c2ccc(F)cc21 (centres unmarked) | A549 ρ0 (mitochondria-less) | trypan blue exclusion | – | 24 h | baseline: parental A549 cells | IC50 increase | 2 fold
COC(=O)C1=CO[C@@H](OC(C)=O)[C@@H]2C(Cn3cc(CCO)nn3)=CC[C@H]12 | SK-N-SH | neuroprotection, MTT | – | 0.075 µM, 24 h, with: 250 µM H2O2 | – | viability | 83.5 ± 2.5%
CCCCCCCCCCCCCCCC[P+](c1ccccc1)(c1ccccc1)c1ccccc1 | SK-OV-3 | cell growth or viability, MTT | – | 72 h | – | GI50 | 13.8 µM
COC(=O)C1=CO[C@@H](OC(C)=O)[C@@H]2C(Cn3cc(-c4ccc(OC)cc4)nn3)=CC[C@H]12 | SK-N-SH | neuroprotection, MTT | – | 0.3 µM, 24 h, with: 250 µM H2O2 | – | viability | 60.1 ± 1%
